Measurements gathered from unrelated publications.
Lines come from different studies, so protocols differ. ± marks the error that the study gave.
U2AF2: U2AF2 148-342 (Homo sapiens, UniProt P26368)
UniProt P26368, sequence (whole entry, looked up): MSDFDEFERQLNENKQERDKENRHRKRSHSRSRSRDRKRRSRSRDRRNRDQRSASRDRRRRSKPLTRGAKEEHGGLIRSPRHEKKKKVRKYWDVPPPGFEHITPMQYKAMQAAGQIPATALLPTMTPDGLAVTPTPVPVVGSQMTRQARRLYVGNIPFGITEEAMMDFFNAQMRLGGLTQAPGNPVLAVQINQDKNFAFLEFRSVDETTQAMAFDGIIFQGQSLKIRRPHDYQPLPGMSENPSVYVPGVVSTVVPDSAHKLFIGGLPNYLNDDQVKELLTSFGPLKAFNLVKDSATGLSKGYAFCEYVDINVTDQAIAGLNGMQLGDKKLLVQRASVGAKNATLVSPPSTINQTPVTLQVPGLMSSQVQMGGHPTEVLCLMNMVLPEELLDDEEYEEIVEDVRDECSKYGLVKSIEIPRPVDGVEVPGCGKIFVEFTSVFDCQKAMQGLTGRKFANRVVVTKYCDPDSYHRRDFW
B1: SIR4 1150-1358 (Saccharomyces cerevisiae, UniProt P11978); sequence looked up; chain KTLPEKKQFDSIFNSNKAKIIPGNGKHASENISLSFSRPASYGYFSVGKRVPIVEDRRVKQLDDITDSNTTEILTSVDVLGTHSQTGTQQSNMYTSTQKTELEIDNKDSVTECSKDMKEDGLSFVDIVLSKAASALDEKEKQLAVANEIIRSLSDEVMRNEIRITSLQGDLTFTKKCLENARSQISEKDAKINKLMEKDFQVNKEIKPY
B2: ATG9 864-997 (Saccharomyces cerevisiae, UniProt Q12142); sequence looked up; chain SFLNNKYSWRKQFQPGQKPELFRIGKHALGPGHNISPAIYSTRNPGKNWDNNNNGDDIKNGTNNATAKNDDNNGNNDHEYVLTESFLDSGAFPNHDVIDHNKMLNSNYNGNGILNKGGVLGLVKEYYKKSDVGR
B3: PRP40 351-415 (Saccharomyces cerevisiae, UniProt P33203); chain NYTRDRIARDNFKSLLREVPIKIKANTRWSDIYPHIKSDPRFLHMLGRNGSSCLDLFLDFVDEQR
B4: sufE 1-138 C51A/E107C (Escherichia coli, UniProt P76194); chain MALLPDKEKLLRNFLRCANWEEKYLYIIELGQRLPELRDEDRSPQNSIQGAQSQVWIVMRQNAQGIIELQGDSDAAIVKGLIAVVFILYDQMTPQDIVNFDVRPWFCKMALTQHLTPSRSQGLEAMIRAIRAKAAALS
B5: AZI2 1-75 (Homo sapiens, UniProt Q9H6S1); chain MDALVEDDICILNHEKAHKRDTVTPVSIYSGDESVASHFALVTAYEDIKKRLKDSEKENSLLKKRIRFLEEKLIA
B6: NOTCH3 EGF5-12 197-505 (Homo sapiens, UniProt Q9UM47); sequence looked up; chain PAVPCAPSPCRNGGTCRQSGDLTYDCACLPGFEGQNCEVNVDDCPGHRCLNGGTCVDGVNTYNCQCPPEWTGQFCTEDVDECQLQPNACHNGGTCFNTLGGHSCVCVNGWTGESCSQNIDDCATAVCFHGATCHDRVASFYCACPMGKTGLLCHLDDACVSNPCHEDAICDTNPVNGRAICTCPPGFTGGACDQDVDECSIGANPCEHLGRCVNTQGSFLCQCGRGYTGPRCETDVNECLSGPCRNQATCLDRIGQFTCICMAGFTGTYCEVDIDECQSSPCVNGGVCKDRVNGFSCTCPSGFSGSTCQ
B7: bcsC 21-179 (Escherichia coli, UniProt P37650); chain VEAAPTAQQQLLEQVRLGEATHREDLVQQSLYRLELIDPNNPDVVAARFRSLLRQGDIDGAQKQLDRLSQLAPSSNAYKSSRTTMLLSTPDGRQALQQARLQATTGHAEEAVASYNKLFNGAPPEGDIAVEYWSTVAKIPARRGEAINQLKRINADAPG
B8: HIF1A 394-574 (Homo sapiens, UniProt Q16665); sequence looked up; chain PDALTLLAPAAGDTIISLDFGSNDTETDDQQLEEVPLYNDVMLPSPNEKLQNINLAMSPLPTAETPKPLRSSADPALNQEVALKLEPNPESLELSFTMPQIQDQTPSPSDGSTRQSSPEPNSPSEYCFYVDSDMVNEFKLELVEKLFAEDTEAKNPFSTQDTDLDLEMLAPYIPMDDDFQL
B9: RAV2 1-351 (Saccharomyces cerevisiae, UniProt Q03956); chain MSVDLFPNDRFGAEDKYDNFKDAVKECSWLIEEIVKPQLPNIIDNFSKCLEMLESDQIFKMPVSNGIPNESNKQNDSPTVKGVITRQGQYIVDFHIVVRFPQFQRGKQVMFRMNTGLNFLLIQFSKIMTHLKNILEILNQLQVATDVSEFVSKFGVAMELLNHSLILLQNPPRDLVFPEDNNFAMKEMFQDCYSVCESTAHILGLELTLCRNELCIELRNLIKVTKKPWCEIDSKTGRSFCDQIRNQVTNERNKTLSKILSENGVQVQDSTLLNHIISSFQSEAITLPEAQELLRRGVTFDNRVVMECEKLIVSTSDPTLISISAKLNSLKASMANHQANLVASKQLSTYK
B10: HNRNPA0 178-304 (Homo sapiens, UniProt Q13151); sequence looked up; chain DIYSGGGGGGSRSSRGGRGGRGRGGGRDQNGLSKGGGGGYNSYGGYGGGGGGGYNAYGGGGGGSSYGGSDYGNGFGGFGSYSQHQSSYGPMKSGGGGGGGGSSWGGRSNSGPYRGGYGGGGGYGGSS
B11: INF2 941-1249 (Homo sapiens, UniProt Q27J81-1); FITC label; chain KQQLAEEEARRPRGEDGKPVRKGPGKQEEVCVIDALLADIRKGFQLRKTARGRGDTDGGSKAASMDPPRATEPVATSNPAGDPVGSTRCPASEPGLDATTASESRGWDLVDAVTPGPQPTLEQLEEGGPRPLERRSSWYVDASDVLTTEDPQCPQPLEGAWPVTLGDAQALKPLKFSSNQPPAAGSSRQDAKDPTSLLGVLQAEADSTSEGLEDAVHSRGARPPAAGPGGDEDEDEEDTAPESALDTSLDKSFSEDAVTDSSGSGTLPRARGRASKGTGKRRKKRPSRSQEEVPPDSDDNKTKKLCVIQ
B12: Ras suppressor protein 1 (human); sequence looked up; chain SKSLKKLVEESREKNQPEVDMSDRGISNMLDVNGLFTLSHITQLVLSHNKLTMVPPNIAELKNLEVLNFFNNQIEELPTQISSLQKLKHLNLGMNRLNTLPRGFGSLPALEVLDLTYNNLSENSLPGNFFYLTTLRALYLSDNDFEILPPDIGKLTKLQILSLRDNDLISLPKEIGELTQLKELHIQGNRLTVLPPELGNLDLTGQKQVFKAENNPWVTPIADQFQLGVSHVFEYIRSETYKYLYGRHMQANPEPPKKNNDKSKKISRKPLAAKNR
B13: rde-4 (Caenorhabditis elegans, UniProt G5EBF5); chain MDLTKLTFESVFGGSDVPMKPSRSEDNKTPRNRTDLEMFLKKTPLMVLEEAAKAVYQKTPTWGTVELPEGFEMTLILNEITVKGQATSKKAARQKAAVEYLRKVVEKGKHEIFFIPGTTKEEALSNIDQISDKAEELKRSTSDAVQDNDNDDSIPTSAEFPPGISPTENWVGKLQEKSQKSKLQAPIYEDSKNERTERFLVICTMCNQKTRGIRSKKKDAKNLAAWLMWKALEDGIESLESYDMVDVIENLEEAEHLLEIQDQASKIKDKHSALIDILSDKKRFSDYSMDFNVLSVSTMGIHQVLLEISFRRLVSPDPDDLEMGAEHTQTEEIMKATAEKEKLRKKNMPDSGPLVFAGHGSSAEEAKQCACKSAIIHFNTYDFTD
B14: HDAC4 155-220 (Homo sapiens, UniProt P56524); sequence looked up; chain LKNKEKGKESAVASTEVKMKLQEFVLNKKKALAHRNLNHCISSDPRYWYGKTQHSSLDQSSPPQSG
UniProt P25823, sequence (whole entry, looked up): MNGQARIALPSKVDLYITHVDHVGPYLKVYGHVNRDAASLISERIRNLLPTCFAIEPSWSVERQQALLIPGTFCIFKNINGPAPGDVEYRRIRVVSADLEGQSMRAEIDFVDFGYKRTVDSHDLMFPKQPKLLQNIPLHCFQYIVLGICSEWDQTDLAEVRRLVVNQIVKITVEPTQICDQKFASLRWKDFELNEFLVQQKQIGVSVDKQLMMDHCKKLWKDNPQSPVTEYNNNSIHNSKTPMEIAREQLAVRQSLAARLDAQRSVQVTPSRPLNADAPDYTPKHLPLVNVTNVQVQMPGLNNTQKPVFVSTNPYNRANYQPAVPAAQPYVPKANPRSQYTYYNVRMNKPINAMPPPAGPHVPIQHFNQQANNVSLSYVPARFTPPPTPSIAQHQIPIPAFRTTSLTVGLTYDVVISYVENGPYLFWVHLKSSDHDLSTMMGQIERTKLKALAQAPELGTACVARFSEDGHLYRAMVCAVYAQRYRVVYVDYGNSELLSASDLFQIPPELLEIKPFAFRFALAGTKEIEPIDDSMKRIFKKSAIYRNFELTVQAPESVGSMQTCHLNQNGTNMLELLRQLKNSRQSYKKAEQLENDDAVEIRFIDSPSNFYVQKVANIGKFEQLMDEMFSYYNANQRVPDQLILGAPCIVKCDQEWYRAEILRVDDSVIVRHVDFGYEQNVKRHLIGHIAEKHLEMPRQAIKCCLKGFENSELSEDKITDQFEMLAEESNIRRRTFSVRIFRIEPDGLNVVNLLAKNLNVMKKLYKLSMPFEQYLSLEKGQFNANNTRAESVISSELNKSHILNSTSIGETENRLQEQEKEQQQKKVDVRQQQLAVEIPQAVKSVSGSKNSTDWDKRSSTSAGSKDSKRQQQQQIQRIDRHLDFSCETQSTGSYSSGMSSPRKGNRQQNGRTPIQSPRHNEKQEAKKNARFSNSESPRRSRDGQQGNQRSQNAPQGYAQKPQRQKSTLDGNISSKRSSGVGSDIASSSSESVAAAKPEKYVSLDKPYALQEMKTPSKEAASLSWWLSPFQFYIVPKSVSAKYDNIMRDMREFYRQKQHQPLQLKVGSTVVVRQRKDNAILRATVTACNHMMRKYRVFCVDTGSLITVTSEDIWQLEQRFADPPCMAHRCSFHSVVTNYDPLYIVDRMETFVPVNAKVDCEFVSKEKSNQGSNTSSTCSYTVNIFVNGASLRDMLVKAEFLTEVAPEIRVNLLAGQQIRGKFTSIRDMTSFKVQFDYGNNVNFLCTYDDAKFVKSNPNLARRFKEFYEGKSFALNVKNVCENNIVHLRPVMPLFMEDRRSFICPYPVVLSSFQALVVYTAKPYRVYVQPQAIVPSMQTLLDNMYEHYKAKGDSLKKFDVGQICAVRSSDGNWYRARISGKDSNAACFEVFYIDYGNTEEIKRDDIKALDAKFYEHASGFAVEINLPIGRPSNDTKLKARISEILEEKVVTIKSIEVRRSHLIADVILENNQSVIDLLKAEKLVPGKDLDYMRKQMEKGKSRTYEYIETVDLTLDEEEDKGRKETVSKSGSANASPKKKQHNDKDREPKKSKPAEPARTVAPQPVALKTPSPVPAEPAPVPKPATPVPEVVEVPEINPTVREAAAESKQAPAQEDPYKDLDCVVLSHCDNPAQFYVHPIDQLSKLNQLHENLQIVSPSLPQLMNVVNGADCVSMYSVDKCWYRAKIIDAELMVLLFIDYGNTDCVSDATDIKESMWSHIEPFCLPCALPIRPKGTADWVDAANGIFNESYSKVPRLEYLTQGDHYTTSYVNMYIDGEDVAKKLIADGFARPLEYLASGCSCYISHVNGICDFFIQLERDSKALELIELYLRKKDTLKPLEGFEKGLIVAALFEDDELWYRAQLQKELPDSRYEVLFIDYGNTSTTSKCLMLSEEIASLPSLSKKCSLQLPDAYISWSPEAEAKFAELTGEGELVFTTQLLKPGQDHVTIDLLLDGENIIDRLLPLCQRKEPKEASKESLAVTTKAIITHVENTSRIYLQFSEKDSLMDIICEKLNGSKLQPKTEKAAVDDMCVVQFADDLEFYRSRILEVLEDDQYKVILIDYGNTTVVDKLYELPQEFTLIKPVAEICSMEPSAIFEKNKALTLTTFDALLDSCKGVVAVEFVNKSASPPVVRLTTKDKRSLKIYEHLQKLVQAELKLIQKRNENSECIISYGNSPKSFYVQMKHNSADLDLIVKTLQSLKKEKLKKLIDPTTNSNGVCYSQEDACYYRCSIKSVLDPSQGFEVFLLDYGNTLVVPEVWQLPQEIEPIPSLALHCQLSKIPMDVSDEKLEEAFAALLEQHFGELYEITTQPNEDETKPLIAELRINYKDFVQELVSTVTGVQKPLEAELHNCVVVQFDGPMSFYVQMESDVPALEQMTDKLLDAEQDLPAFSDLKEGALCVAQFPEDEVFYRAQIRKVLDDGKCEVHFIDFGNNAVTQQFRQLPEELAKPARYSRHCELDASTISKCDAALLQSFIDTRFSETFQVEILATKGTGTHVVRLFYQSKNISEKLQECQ
UniProt P0AFB1, sequence (whole entry, looked up): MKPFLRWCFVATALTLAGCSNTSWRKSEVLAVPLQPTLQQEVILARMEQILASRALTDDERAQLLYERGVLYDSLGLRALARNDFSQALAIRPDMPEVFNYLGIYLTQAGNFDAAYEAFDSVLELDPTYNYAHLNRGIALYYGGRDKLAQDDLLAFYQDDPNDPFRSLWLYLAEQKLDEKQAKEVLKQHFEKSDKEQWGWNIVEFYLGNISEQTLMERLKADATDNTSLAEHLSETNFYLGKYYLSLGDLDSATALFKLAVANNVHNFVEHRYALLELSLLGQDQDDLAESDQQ
UniProt Q8LIB3, sequence (whole entry, looked up): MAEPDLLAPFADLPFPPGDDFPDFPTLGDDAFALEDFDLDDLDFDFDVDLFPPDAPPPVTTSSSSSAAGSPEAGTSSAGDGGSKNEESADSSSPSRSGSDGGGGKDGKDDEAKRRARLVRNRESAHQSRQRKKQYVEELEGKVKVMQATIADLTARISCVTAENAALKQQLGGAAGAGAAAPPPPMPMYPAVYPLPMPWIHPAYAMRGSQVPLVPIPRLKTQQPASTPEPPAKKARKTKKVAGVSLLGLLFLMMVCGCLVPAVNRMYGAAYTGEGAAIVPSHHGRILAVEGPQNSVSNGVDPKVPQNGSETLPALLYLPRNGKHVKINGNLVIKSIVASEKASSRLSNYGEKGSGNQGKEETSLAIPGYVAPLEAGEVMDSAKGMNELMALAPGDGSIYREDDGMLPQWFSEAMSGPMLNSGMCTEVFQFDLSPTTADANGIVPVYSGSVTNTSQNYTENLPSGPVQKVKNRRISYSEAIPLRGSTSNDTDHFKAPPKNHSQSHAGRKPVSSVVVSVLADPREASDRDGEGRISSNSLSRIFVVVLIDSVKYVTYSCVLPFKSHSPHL
UniProt Q6ZLB0, sequence (whole entry, looked up): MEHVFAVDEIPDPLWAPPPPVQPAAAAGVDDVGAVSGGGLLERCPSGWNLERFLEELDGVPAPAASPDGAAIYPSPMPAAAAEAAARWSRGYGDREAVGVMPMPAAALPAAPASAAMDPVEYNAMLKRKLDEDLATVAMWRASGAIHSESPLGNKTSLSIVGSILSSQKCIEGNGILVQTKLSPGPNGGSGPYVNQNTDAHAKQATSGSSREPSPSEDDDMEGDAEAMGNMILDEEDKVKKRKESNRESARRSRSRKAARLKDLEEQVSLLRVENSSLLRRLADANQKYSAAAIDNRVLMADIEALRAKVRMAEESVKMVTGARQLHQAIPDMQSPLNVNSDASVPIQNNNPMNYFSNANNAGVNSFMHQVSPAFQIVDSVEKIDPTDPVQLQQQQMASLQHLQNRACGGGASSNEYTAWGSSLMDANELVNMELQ
UniProt O65555, sequence (whole entry, looked up): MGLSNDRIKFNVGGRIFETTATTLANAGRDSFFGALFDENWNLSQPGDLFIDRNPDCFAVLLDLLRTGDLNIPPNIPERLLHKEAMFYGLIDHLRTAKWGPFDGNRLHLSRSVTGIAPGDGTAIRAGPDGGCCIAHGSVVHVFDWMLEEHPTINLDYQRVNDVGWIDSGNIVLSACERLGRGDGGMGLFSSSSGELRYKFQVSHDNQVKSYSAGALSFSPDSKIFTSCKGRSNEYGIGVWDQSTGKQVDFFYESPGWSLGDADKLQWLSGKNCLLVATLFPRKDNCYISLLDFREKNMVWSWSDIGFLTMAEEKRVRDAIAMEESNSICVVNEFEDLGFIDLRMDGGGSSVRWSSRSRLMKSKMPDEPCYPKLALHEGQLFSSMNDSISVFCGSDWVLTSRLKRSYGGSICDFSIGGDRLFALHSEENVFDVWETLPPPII
UniProt P29055, sequence (whole entry, looked up): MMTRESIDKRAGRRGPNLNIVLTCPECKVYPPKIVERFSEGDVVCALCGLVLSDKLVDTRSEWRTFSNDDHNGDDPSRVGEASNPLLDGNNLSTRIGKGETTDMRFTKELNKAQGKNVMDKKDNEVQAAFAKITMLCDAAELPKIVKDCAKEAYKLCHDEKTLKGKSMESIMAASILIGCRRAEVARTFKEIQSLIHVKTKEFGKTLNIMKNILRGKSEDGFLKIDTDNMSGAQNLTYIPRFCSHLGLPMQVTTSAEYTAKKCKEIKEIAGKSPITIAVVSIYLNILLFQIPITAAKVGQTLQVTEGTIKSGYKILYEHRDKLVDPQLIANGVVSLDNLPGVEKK

Substance | target or system | assay | system | setting | how to read | quantity | result
B1 (SIR4 1150-1358) | SIR2 (Saccharomyces cerevisiae, UniProt P06700) | cross-linking mass spectrometry | – | – | – | binding | binds
B2 (ATG9 864-997) | ATG23 A34E (Saccharomyces cerevisiae, UniProt Q06671) | pull-down | – | 15 minutes, 4 °C | – | binding | binds
GUUCAGUGU (ssRNA) | U2AF2 | sequencing of bound RNA | RNA | motif only | – | Kd | 3620 nM
B3 (PRP40 351-415) | SNU71 382-537 (Saccharomyces cerevisiae, UniProt P53207) | pull-down | – | – | – | binding | binds
SVP (Arabidopsis thaliana, UniProt Q9FVC1) | protein (Arabidopsis thaliana, UniProt O65555) | pull-down | – | – | – | binding | binds
B4 (sufE 1-138 C51A/E107C) | sufS 1-406 (Escherichia coli, UniProt P77444) | crystal structure | – | – | – | binding | binds
B5 (AZI2 1-75) | CALCOCO2 1-316 (Homo sapiens, UniProt Q13137) | SEC | – | – | – | binding | binds
B6 (NOTCH3 EGF5-12 197-505) | DLL4 27-400 G28S/F107L/I143F/H194Y/L206P (Homo sapiens, UniProt Q9NR61) | SPR | – | – | – | binding | binds
QELFGPGLFGGF (dnaJ2 98-109 (Thermus thermophilus, UniProt Q56237); sequence looked up) | dnaK 388-500 (Thermus thermophilus, UniProt Q56235) | NMR | peptide | – | – | binding | binds
YLYQWLGAPVPYPDPLEPRREVCELNPDCDELADHIGFQEAYRRFYGPV (BGLAP mature, uncarboxylated (Homo sapiens)) | GGCX (Homo sapiens, UniProt P38435-1) | cross-linking | peptide | – | – | binding | binds
nlpI (Escherichia coli, UniProt P0AFB1) | prc K477A (Escherichia coli, UniProt P23865) | pull-down | – | – | – | binding | binds
TCCTGAAGGGGCGCCCTAGCTTGGTCCTATCGTCGTCAAGTCAATCGGTCC (dsDNA; 5'-amino-C6 primer) | SUA7 full length assumed (Saccharomyces cerevisiae, UniProt P29055) | array | double-stranded DNA, one strand shown | TFIIB alone | – | Kd | 4.91 ± 1.2 nM
RISBZ1 (Oryza sativa, UniProt Q6ZLB0) | bZIP60 (Oryza sativa, UniProt Q8LIB3) | pull-down | – | in vitro | – | binding | binds
B7 (bcsC 21-179) | bcsB 56-779 (Escherichia coli, UniProt P37652) | cryo-EM | – | – | – | binding | binds
GTSSFKESALRKQSLYLKFDPLLRDSPGR (TACC3 545-573 (Homo sapiens, UniProt Q9Y6A5); sequence looked up) | CLTC 358-574 (Homo sapiens, UniProt Q00610) | NMR titration | – | – | – | binding | binds
B8 (HIF1A 394-574) | EGLN1 181-426 (Homo sapiens, UniProt Q9GZT9) | NMR titration | – | – | – | binding | binds
B9 (RAV2 1-351) | RAV1 1-1357 (Saccharomyces cerevisiae, UniProt P47104) | cryo-EM structure | – | – | – | binding | binds
proteasome subunit beta-1 (human) | CYB5R4 knockout human cells | PP6 interaction, 3xFLAG-PP6C IP-MS | – | concentration not given | baseline: CYB5R4 KO over parental | log2 fold change | 2.96
B10 (HNRNPA0 178-304) | TAF15 396-592 (Homo sapiens, UniProt Q92804) | hydrogel trapping | – | – | – | binding | binds
GMERTVVMDKSKGEPVISVKTT (SAFB2 567-588 (Homo sapiens, UniProt Q14151)) | ERH 1-104 E30R/E37R (Homo sapiens, UniProt P84090) | pull-down | – | – | – | binding | binds
CCCGCCCCGCACTAGGACCCCTGCAGATGATCAGGTCAAGTCAATCGGTCC (dsDNA; 5'-amino-C6 primer) | SPT15 full length assumed (Saccharomyces cerevisiae, UniProt P13393) | array | double-stranded DNA, one strand shown | TBP alone | – | Kd | 32.5 ± 11.1 nM
B11 (INF2 941-1249) | INF2 31-420 (Homo sapiens, UniProt Q27J81) | FP | – | – | – | binding | binds
GUUCUUAUU (ssRNA) | U2AF2 | sequencing of bound RNA | RNA | motif only | – | Kd | 2490 nM
B12 (Ras suppressor protein 1) | PP6C (human) | co-immunoprecipitation, IP-MS | CYB5R4 knockout cells | concentration not given | baseline: CYB5R4 knockout over parental | log2 fold change | -0.37
B13 (rde-4) | dcr-1 (Caenorhabditis elegans, UniProt P34529) | mass photometry | – | – | – | binding | binds
aub (Drosophila melanogaster, UniProt O76922) | tud (Drosophila melanogaster, UniProt P25823) | pull-down | not purified | – | – | binding | binds
B14 (HDAC4 155-220) | MEF2A 1-95 (Homo sapiens, UniProt Q02078) | SPR | – | – | – | binding | binds
human ME2 G124S mutant | – | enzyme activity, NADH absorbance | – | with fumarate 3 mM, together with: L-malate varied | – | Hill coefficient | 1 ± 0.01

For quick reference, copied from above:
Substance | target or system | assay | system | setting | how to read | quantity | result
B1 (SIR4 1150-1358) | SIR2 (Saccharomyces cerevisiae, UniProt P06700) | cross-linking mass spectrometry | – | – | – | binding | binds
B2 (ATG9 864-997) | ATG23 A34E (Saccharomyces cerevisiae, UniProt Q06671) | pull-down | – | 15 minutes, 4 °C | – | binding | binds
GUUCAGUGU (ssRNA) | U2AF2 | sequencing of bound RNA | RNA | motif only | – | Kd | 3620 nM
